Measured values gathered from unrelated publications.
Every numbered part comes from another study and shows a few of its results, in no order.

Series 1 — technique: protein binding microarray; form: double-stranded DNA, one strand shown; sample: in vitro; tested at: not given; relative to: not given; direction: higher = stronger binding; endpoint: E-score
Target: Histone acetyltransferase KAT6A, both winged helices, GST fusion (KAT6A, Homo sapiens, UniProt Q92794, residues 1-181)
Setting: 8-mer, flanks averaged, mean of 2 arrays, mostly near background
Target sequence (chain): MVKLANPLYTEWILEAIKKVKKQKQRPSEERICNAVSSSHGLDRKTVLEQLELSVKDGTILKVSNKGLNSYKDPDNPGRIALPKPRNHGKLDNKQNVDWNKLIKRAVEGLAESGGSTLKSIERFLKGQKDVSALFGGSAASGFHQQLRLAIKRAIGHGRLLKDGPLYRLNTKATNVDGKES
CCACAGTC: -0.221
ATGGCTGG: -0.264
CAGACGCG: 0.275
AGTATTTA: -0.147
ACCCGGCG: 0.283
CTGTGACA: -0.175
GCAGGGCA: -0.0988
GGGCTATA: -0.0533
GACTCTTA: -0.195
ACCCGTTG: 0.214
CCTGTAAG: -0.203
CATCGTAG: -0.0305
ACTTTGTC: -0.202
CTACTACA: -0.0162
GGCGGGGA: 0.211
GGGCATCA: -0.102
GCGGCAAA: 0.3
AAAGGTTG: -0.0756
CCGCTTAG: 0.169
ATGCTATC: -0.000105
ATTAAGTC: -0.133
ACGCGTCT: 0.258
ATCTAGTG: -0.134
AGGCGAAA: -0.115
CGCAGCCG: 0.177

Series 2 — technique: RNA Bind-n-Seq; form: RNA; sample: in vitro; tested at: 365 nM; relative to: no-protein control; direction: higher = stronger binding; endpoint: RBNS enrichment (R)
Target: RNA binding protein fox-1 homolog 2, RRM domain, GST-SBP tag (RBFOX2, Homo sapiens, UniProt O43251-10, residues 100-194)
Setting: natural RNA segment, single round, ends assumed
Shared flanks, not repeated: GGGAGUUCUACAGUCCGACGAUC … UGGAAUUCUCGGGUGCCAA
Target sequence (chain): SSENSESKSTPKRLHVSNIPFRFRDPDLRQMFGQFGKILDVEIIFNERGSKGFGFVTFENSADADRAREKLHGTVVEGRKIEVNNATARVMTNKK
UGCACCUAACCAACACCUCCAGGGGCUCGCUAAGGAGCCCCCCUCCACCCCCUGAAUGGGUGUGGCUUGUGGCCAUAUUGACAGACCAAUCUAUGGGACUAGGGGGAUUG: 0.62
CACAACAAGAAAUUCUUUAAAGCUGUGGAAGAAAUCUAGACGUGAGGGCCAGUCCAGGCUGUCAGCCCAUGCAGCUGACACUGGUUGGUCUCUCAGUAUGUGGGAAAUCC: 0.306
AAAGUUUGUCAUGGUGAAUAACUUGAAAUUUUUAUUAGUUAUAAGAAUUUUAGUCUGUUUUAGAGGUCAGUAAAUAAAAUACAAGCAUCCUGGUUUUGUUGAAGUUUUGG: 1.26
ACCAUCACAUACCAGUAACUCGGUGGGCAGGGAGUCUGUUCCCCCGUCCUUGCAUUCCGCUGGCUGACCUGUUAGACCUGUCCUUGUGAAUGCCACCGUUUCCUCUAAGA: 0.515
UUAACACUUGUUACCUAAUGAACAAGGAGGAUGUGCAUUUCGGGUUUCUUUUGAUAUUCGUGGAGGUGAUUGUCAGUGUUUAAACAGGACUACUUUCUCCACUAUGAAGA: 0.335
GAGCCUGUGGCUGGCCCUCUGCUGCUGUUCUCUCCCUCCAACCUGGCUGUUUCUUGCGGGGCAAGGGGUGGGCUCAGGGCUGCAGGGGUUUCUCAAAGGCAAUCCAGCUU: 0.305
ACUUUGCGUCGUUUCUGUACUUCUUUAAAACAACUAAGCCACCGUUCGCAGCUGAGUUGUGAUACUGACCUGGUAAUCAGACCAAAGUACUGUCCCGGCUGGUUUUAUCU: 0.245
UGAAGGUUGUCUCUUCCGAGGGCCUUCUGAAGACAGGGCUCUUGAACAGACAAGUGGAAGGGCUGUACCAGGGAUAAAGGAAAGAAGUGCCUGUCCAGCAGGGAGCUUGA: 0.672

Series 3 — technique: RNAcompete; form: RNA; sample: in vitro; tested at: 20 nM; setting: 7-mer, probes averaged, single round; relative to: mean of 7-mers; direction: higher = stronger binding; endpoint: 7-mer Z-score
Target: PABPC1L2, full length, GST fusion (mouse, UniProt A0ABA7IW68)
Target sequence (chain): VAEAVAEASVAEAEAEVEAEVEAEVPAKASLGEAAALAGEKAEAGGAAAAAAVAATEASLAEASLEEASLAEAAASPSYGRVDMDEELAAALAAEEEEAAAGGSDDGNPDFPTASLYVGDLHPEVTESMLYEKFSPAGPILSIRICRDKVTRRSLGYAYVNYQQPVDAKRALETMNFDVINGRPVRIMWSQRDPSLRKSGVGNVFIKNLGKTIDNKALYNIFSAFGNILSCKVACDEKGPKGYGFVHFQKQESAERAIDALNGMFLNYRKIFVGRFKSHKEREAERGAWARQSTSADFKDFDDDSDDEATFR
UUGCCAC: -0.168
UUACCAG: -0.213
CCGUUAU: -0.338
UCGAUGU: -0.171
AUGUUUU: -0.36
UGUUAGC: -0.306
GUAUGGG: 0.0587
UAUGGCA: 0.000733
ACCGCCA: -0.226
CUCCAUA: -0.112
UGCUAUU: -0.249
GGAGUAA: 0.166
AGAUUUA: -0.0989
CGUCUUA: -0.398
GCCACCC: -0.11
UGGCUCU: -0.0808
CAGGACU: 0.109
GGCGUAC: -0.0391
AUAAGUG: 0.00436
ACCACAG: -0.103
ACCCCAC: -0.356

Series 4 — technique: protein-binding microarray; form: double-stranded DNA, one strand shown; sample: in vitro; tested at: 2200 nM top; setting: 60-bp whole probe; with: salmon DNA 0.4 mg/ml; relative to: random background probes; direction: higher = stronger binding; endpoint: fitted relative affinity; shared flanks, not repeated: GCCTAGCAC … GTCTTGATTCGCTTGACGCTGCTG
Target: Interferon regulatory factor 7, full length, phosphomimetic (IRF7, Homo sapiens, UniProt Q92985, residues 1-503, S471D/S472D/S475D/S476D/S477D/S483D/S484D/S487D)
Sequence of UniProt Q92985 (whole entry, unmodified, looked up): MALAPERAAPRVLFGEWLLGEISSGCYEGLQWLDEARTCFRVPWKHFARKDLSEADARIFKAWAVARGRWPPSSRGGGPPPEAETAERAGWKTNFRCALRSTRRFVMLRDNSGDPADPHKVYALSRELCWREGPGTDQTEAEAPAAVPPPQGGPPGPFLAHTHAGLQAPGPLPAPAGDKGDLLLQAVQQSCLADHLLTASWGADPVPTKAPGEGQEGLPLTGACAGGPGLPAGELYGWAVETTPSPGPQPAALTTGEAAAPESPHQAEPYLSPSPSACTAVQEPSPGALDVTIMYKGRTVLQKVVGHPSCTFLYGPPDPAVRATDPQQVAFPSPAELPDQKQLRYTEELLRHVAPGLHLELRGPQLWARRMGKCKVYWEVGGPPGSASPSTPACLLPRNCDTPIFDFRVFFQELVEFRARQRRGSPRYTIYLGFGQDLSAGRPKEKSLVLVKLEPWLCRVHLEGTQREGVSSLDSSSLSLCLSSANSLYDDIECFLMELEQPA
ATTGCTTTCTCTTTCATTGCGTGCTAG: 7.25 z-score
TTTTTTTTTTTTTTTTGTATGTGCTAG: 2.02 z-score
GGCTCTCAGTGGGCTGCTGGGTGCTAG: -0.908 z-score
GACGGTTCCGCTTTCGGGACGTGCTAG: 5.61 z-score
GTCGGACTGGGTTTCGGGACGTGCTAG: 1.44 z-score
TTAGGACGGGGTATCGGTTAGTGCTAG: -0.207 z-score
TTAGGTCTCGGTGTCGGTTAGTGCTAG: 0.508 z-score
GACGGACTGGACATTCGGGACGTGCTA: -0.0609 z-score
TCATATATAATATATATTACTGTGCTA: 0.335 z-score
GATGGTATCGGGACTGGGGACGTGCTA: -0.364 z-score
GACGGTTTCGACGTTCGGGACGTGCTA: 2.38 z-score
TTAGGACTGGGGTTTCGGATAGTGCTA: 0.627 z-score
TTAGGTATCGACTTTCGGTTTGTGCTA: 13.1 z-score

Series 5 — technique: RNA Bind-n-Seq; form: RNA; sample: in vitro; tested at: 200 nM; setting: whole 134-nt RNA, ends assumed; with: 150 mM KCl; relative to: input library; direction: higher = stronger binding; endpoint: log2 enrichment
Target: Ras GTPase-activating protein-binding protein 1, full length (G3BP1, Homo sapiens, UniProt Q13283)
Sequence of UniProt Q13283 (whole entry, looked up): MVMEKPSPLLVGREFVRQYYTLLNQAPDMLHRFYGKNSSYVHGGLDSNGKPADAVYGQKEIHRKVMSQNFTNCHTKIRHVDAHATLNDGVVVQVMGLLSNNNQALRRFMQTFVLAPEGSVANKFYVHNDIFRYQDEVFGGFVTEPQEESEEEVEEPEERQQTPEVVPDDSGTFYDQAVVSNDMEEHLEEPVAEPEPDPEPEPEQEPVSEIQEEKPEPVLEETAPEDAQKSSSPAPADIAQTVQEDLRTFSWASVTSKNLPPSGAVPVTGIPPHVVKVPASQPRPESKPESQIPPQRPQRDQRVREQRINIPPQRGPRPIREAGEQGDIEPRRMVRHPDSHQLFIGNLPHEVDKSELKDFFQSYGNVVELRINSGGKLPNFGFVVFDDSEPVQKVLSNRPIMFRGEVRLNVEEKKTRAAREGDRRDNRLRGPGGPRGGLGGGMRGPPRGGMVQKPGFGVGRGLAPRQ
Shared flanks, not repeated: GGGAGUUCUACAGUCCGACGAUC … UGGAAUUCUCGGGUGUCAAGG
UCCUCAAGUCCUGUGCUACACAUCGUAUGUACCGAAUCGGAGGAGGAAAGGAAAGUAUUAUGUUACGCCGUUCGGAUCUGCACUUCCAGC: -0.728
GUCCUGUGCUACACAUCGUAUGUACCGAAUCGGGGCCCCCGGGGCCCCCGGCCCCCGGAAAGUAUUAUGUUACGCCGUUCGGAUCUGCAC: 0.347
UUUCUUCUGCUGCUGCUAGUCAUGAGAUCAAGGUGGGUCUGAGAAUGGCCAUUCAGAGGCCCUGGAUAGUAACCAGGUAAUGGAUGACAC: -0.776
ACCAUGCAGGUGGGCAUCUUUUGGAAGUGGGGCAAGGGGGGGAUAGGGAGGGGGGUAACACUUUGGGAACAGGUGGUCCCAGGUCGUUUC: 1.27
UGGCCCUGUUGGCAUGCGGGGAGGAAGAGGUGGCCUCAUGGAUCGUGGUGGUCCCGGUGGAAUGUUCAGAGGUGGCCGUGGUGGAGACAG: 0.144
AGUCCUGUGCUACACAUCGUAUGUACCGAAUCGGGGAAAAAGGGGAGGGGUUUGGGGAAAGUAUUAUGUUACGCCGUUCGGAUCUGCACU: 0.0849
AAGUCCUGUGCUACACAUCGUAUGUACCGAAUCGGGUUUUUUUGGGUGGGAAAGGGAAAGUAUUAUGUUACGCCGUUCGGAUCUGCACUU: 0.075
UAACUUUAGAGGAGGAUCUGAUGGAUAUGGCAGUGGACGUGGAUUUGGGGAUGGCUAUAAUGGGUAUGGAGGAGGACCUGGAGGUCGCAA: 0.229
ACCAUGCAGGUGGGCACCUUUGGGAAGUGGGGCAAGGGGGGGAUAGGGAGGGGGGUAACACUUUGGGAACAGGUGGUCCCAGGUCGUUUC: 1.53

A few entries again (series 4):
TTAGGACGGGGTATCGGTTAGTGCTAG: -0.207 z-score
TTTTTTTTTTTTTTTTGTATGTGCTAG: 2.02 z-score
GACGGTTTCGACGTTCGGGACGTGCTA: 2.38 z-score
TTAGGACTGGGGTTTCGGATAGTGCTA: 0.627 z-score
TTAGGTATCGACTTTCGGTTTGTGCTA: 13.1 z-score
GACGGTTCCGCTTTCGGGACGTGCTAG: 5.61 z-score
GATGGTATCGGGACTGGGGACGTGCTA: -0.364 z-score
TTAGGTCTCGGTGTCGGTTAGTGCTAG: 0.508 z-score
